Measured values pooled from the literature.
Each numbered part is a random draw from the data of one study; scales do not carry over between parts.

Study 1
Target: RING finger protein unkempt homolog, zinc fingers 1-6, GST-SBP tag (UNK, Homo sapiens, UniProt Q9C0B0, residues 30-357)
Sequence of UniProt Q9C0B0 (30-357, looked up): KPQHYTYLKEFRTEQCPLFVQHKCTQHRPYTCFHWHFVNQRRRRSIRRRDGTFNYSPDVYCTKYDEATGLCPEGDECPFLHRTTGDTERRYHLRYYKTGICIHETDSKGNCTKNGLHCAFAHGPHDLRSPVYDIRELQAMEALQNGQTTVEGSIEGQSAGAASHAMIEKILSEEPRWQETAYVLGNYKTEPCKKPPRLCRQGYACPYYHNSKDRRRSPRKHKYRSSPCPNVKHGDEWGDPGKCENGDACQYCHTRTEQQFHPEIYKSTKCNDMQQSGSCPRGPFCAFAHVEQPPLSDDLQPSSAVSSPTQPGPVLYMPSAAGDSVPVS
Technique: RNA Bind-n-Seq
Form: RNA
Medium: in vitro
Tested at: not given
Setting: RNA with constant flanks, human and mouse sites, ends assumed
Reference: input RNA pool
Direction: higher = stronger binding
Strand	bound/input enrichment [ratio]
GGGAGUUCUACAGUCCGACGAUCUUCCCUGAAUUUCUGACAAUGAUGGCAAGAAAAAUGAAAGACACAGACAGUGAAGAAGAGAUUAGAGAAGCAUUCCGUGUGUUUGAUAAGGAUGGCAAUGGCUAUAUUAGUGCAGCAGAGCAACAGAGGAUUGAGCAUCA	0.815
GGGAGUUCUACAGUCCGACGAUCGACUGGGAGAUGUCACAGUCUUCCAUAAAGAGCUCGAUUUGUCUCCUGAGAGGGAAGAUCUAUGAUGCUUUAGAUAAUCGCACCCUGGCUACCUACAGUUACAAAGAGGCUCUGAAACUGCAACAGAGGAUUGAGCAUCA	0.164
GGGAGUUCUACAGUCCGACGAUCAAUUUUGGAGGGCUGUGAUUUUUCCAGUAUUAAACAUGCAUGCAUUAAUCUUGCAGUUUAUUUUCUCAUUGUGUAUGUAUAUAUCGCUUUUCUCUGCAGCACGAUUUCUCUUUUGAUAAUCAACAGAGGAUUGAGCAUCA	0.211
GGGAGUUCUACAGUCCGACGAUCAUCAAAUACUUUGGGGACAUCAUUAGUGUGGGACAGAGACUGUUGCAAGGAGCUCGGAUCUUAGGGAUUCCAGUUAUCAUAACGGAACAAUACCCCAAAGGACUUGGCAGCACCGUUCAACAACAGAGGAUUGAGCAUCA	0.212
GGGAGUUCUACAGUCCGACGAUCCCUCCCCAUUACCCCUAAAGUAGAACAUUUUUUAAAUUGUGUUGCCACCACUUCUAAAAAUUUAGCAAUAUUAGAAUAGGAUACUAGUGAAGUAAGAAAUUUUGCUUGUUGUUUUGCAAACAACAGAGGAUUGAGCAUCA	302
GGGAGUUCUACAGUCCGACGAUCGCCCGCCGUCCCGACCCCAGCCCCACCCAAGAUGUCAGAGGAUCUAGCAAAACAGUUGGCUAGCUACAAAGCUCAACUCCAGCAAGUAGAAGCUGCCCUUUCUGGAAAUGGAGAAAAUGACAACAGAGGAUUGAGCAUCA	0.981
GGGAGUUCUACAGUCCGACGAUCACCUGUCCUGUGUGCUAAGAGCUAUGCAGCUUAGCUGAGGCGCCUAGAUUACUAGAUGUGCUGUAUCACGGGGAAUGAGGUGGGGGUGCUUAUUUUUUAAUGAACUAAUCAGAGCCUCUUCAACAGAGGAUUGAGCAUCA	0.307
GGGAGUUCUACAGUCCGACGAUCCCCAUGCUUUUAUGGACACUAGGUAAAACGCCUUCAGCUUAAAAUUUUUGUUAAAUAAUUUAGUUUAUUUUAUUGUUAUCUUCCAGGUGUCUAAAUCUCCAGUCUGUCUGUUGUACUGGUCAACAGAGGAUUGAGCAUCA	23.6
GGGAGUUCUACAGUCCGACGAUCAAAGAGCGCACACGUAGAGACCUUAUCCAGGAUCAAAAUAUGGAUGAAAAGGGAAAGCAAAGGAACCGGCGAAUAUUUGGCUUGUUGAUGGGUACCCUUCAAAAAUUUAAACAAGAAUCCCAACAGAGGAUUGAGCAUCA	0.232
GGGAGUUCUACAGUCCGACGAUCAAGAAUUUCAAAGGUACUAUUGAAGAACUGGCUUCAAAUCAGUAUGUGAUUAAUGGAGAAGUAGCUAUUCUGGAUUCUACAACCAUUGAAAUCUCAGAGCUUCCCAUCCGAACGUGGACUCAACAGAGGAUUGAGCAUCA	0.174

Study 2
Target: Interferon regulatory factor 5, full length, phosphomimetic (IRF5, Homo sapiens, UniProt Q13568-2, residues 1-514, K96S/S451D/S453D/S456D/S462D)
Technique: protein-binding microarray
Form: double-stranded DNA, one strand shown
Medium: in vitro
Tested at: 250 nM
Setting: 60-bp whole probe
Added: salmon DNA 0.4 mg/ml
Reference: random background probes
Direction: higher = stronger binding
All sequences stand within: GCCTAGCAC … GTGCTAGGTCTTGATTCGCTTGACGCTGCTG
Strand	log fluorescence [z-score]
GACGGTTTCGGTCTGGGGAC	9.99
AACCATTTTGGTTTTCCTTA	1.08
TTCGGTTTCGGTCTCGGTTA	10.3
TAATATCTAAGATTCTAGCC	0.177
TTCCTTGCTATGTTGCTCAG	0.375
TTAGGACTGATTTTCCTTTA	0.493

Study 3
Target: Histone acetyltransferase KAT6A, winged helix 1, GST fusion (KAT6A, Homo sapiens, UniProt Q92794, residues 1-85)
Technique: protein binding microarray
Form: double-stranded DNA, one strand shown
Medium: in vitro
Tested at: not given
Setting: 8-mer, flanks averaged, mean of 2 arrays, mostly near background
Reference: not given
Direction: higher = stronger binding
Construct (chain): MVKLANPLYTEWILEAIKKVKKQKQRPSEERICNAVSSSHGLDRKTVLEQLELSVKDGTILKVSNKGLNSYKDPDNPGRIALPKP
Strand	E-score
CTATTTCC	-0.137
GATCGTCC	-0.117
CGGTAGGA	0.0888
GCGTTGTA	0.102
AAAGCTGA	-0.0613
CTTTTCAA	-0.153
AAGTAAGG	-0.328

Single results of other studies
Molecule	target	assay	test system	conditions	how to read	quantity	value
PhoQ, residues 284 288 289 292 302 303 SCCLKL	PhoP, residues 12 14 15 18 19 LYFRQ (Escherichia coli, UniProt P23836)	Sort-seq, refers to: YFP reporter	E. coli	PhoQ-PhoP variant library, added: 10 µM Mg2+	reference: high Mg2+ state, higher = stronger signaling	fold induction	2.23

For quick reference, copied from above (study 3):
Strand	E-score
GATCGTCC	-0.117
CGGTAGGA	0.0888
